Experimental data of several laboratories.
A part holds a random share of what one study measured. Substitutions count along the parent as printed.

Block 1
Target: RNA binding protein fox-1 homolog 2, RRM domain, GST-SBP tag (RBFOX2, Homo sapiens, UniProt O43251-10, residues 100-194)
Method: RNA Bind-n-Seq
Form: RNA
Sample: in vitro
Tested at: 365 nM
Notes: natural RNA segment, single round, ends assumed
Relative to: no-protein control
Direction: higher = stronger binding
Quantity: RBNS enrichment (R)
Construct (chain): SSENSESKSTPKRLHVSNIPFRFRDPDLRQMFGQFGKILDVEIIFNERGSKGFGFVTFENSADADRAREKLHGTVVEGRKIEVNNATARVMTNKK
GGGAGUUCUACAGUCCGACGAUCCAAUAAUAGAUUUCCUCUUUUUUGGCAUGCUUUUUAGAUUUUUUUUCAUUUUGUAAAAUCUCAGUUAAUUUUUCUUUAUUGGUAUAUUUGUGUAUGCGAGACAAAUCCUGUGGAAUUCUCGGGUGCCAA: 18
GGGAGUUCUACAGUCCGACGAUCCUUCAGUUUGGGAGCUGGGUCUGUGGCUUUGAUCAGAAGGUACUUUCAAAAGAGGGCUUUCCAGGGCUCAGCUCCCAACCAGCUGUUAGGACCCCACCCUUUUGCCUUUAUGGAAUUCUCGGGUGCCAA: 0.306
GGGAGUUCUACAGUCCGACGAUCGAUGAUUUUCGGAUGUAGGAGAAUGGAAAUGAUAGAACAUUACAGCAAGAGACUGAAUGUUUCCUGAAGUAUUACCAUGACCCAAGGCAGAGAGAAACCAUGGGAACUCCUGGAAUUCUCGGGUGCCAA: 0.239
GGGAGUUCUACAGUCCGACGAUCGGUGUUUAAGUGUUCUGAUAACCUGCUUUUAAUAGUUGUGUAUGCCAAAGUCUUUCCCAGCACCUCUUGUAUUCAUUAUCAAAUAUAUACAUGUAAGUUUGAAGUAUUACUGGAAUUCUCGGGUGCCAA: 0.474
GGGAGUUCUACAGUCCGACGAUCACCCCAGAAACUCCAGCCAGCACCACCGACACAACCAGACCAGCGCCACACCGCACUGAGGACUCCAAGGCCUUCGCGGGACCAUGCCGGCCGGGCUGCCUCGUCUUACUUGGAAUUCUCGGGUGCCAA: 0.76
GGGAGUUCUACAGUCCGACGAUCAUUUUUAAAAGCGUCUGCCUUGGUGCGCAACCACCUCCUGCAUGCUAUGCAUGCUGUUGGGACUCGUAUUACAGGGAAUGGCAUUGAGAAGCCAAGUGGGACUCACUGCUUGGAAUUCUCGGGUGCCAA: 0.384
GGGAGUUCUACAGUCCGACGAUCGGCUGACCUUCCUGAUCAUACACACACACAGCCCAGCAAAAGCCUCUCCUGAACCAAACAAACCUGUUGGUUGGGAGACUGCCCAGACAUGAUUGAUGACGGGUUCCCGCUGGAAUUCUCGGGUGCCAA: 0.955
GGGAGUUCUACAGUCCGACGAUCGCCAAAUAUUAGACUUGAUGUGCAAUCUUCGGUCCUUUUUAAUCUGGGGUAUUAUAGGCAGUACUUUAAAUUGCAAAGUCUUCCGGGCCUAUUUUCCUCUACAUUUUUGUUGGAAUUCUCGGGUGCCAA: 0.766
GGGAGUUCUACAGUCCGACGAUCAAACAUAAAAAGAUCAGGAGAGCAUGACACGGUCUCUUUGUGGCCAGUCAGAAAAGCAAACUAACAGAAACAUGAAUUAGAAUUUCAAGCUCAUCUGAGUUUGACCAACAUGGAAUUCUCGGGUGCCAA: 0.692
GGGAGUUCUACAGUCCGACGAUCCCCCUCUCCAAAGUGAGCAGGCAGGUUUUAAACAGCUUAACUACUGACCAGUUAUAAGACUCGCUUUUCAGUCAUGGAUCCUGCAGAAAUCUGAGACCCACCCAUAUCCUUGGAAUUCUCGGGUGCCAA: 0.234
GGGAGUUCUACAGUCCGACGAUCUUGCAAACCCACAGAGUUUAGGCUGGUGCUGCCAAAAAGAAAAGCAACAUAGAGUUUAAGUAUCCAGUAGUGAUUUGUAAACUUGUUUUUCAUUUGAAGCUGAAUAUAUAUGGAAUUCUCGGGUGCCAA: 0.437
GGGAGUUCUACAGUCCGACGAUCAAGCUGUGCUAAAUGUUUUCUUCAAGGGAACCAGAUUUAGUUCUUUACAGAAUUUUCCAGUGAAAUAAAACAUGUUGUAAUAGCUGUGUUUGAGAUGAAAUAAGAGGUUGUGGAAUUCUCGGGUGCCAA: 0.369

Block 2
Target: Ras GTPase-activating protein-binding protein 1, RRM domain (G3BP1, Homo sapiens, UniProt Q13283)
UniProt Q13283, sequence (whole entry, looked up): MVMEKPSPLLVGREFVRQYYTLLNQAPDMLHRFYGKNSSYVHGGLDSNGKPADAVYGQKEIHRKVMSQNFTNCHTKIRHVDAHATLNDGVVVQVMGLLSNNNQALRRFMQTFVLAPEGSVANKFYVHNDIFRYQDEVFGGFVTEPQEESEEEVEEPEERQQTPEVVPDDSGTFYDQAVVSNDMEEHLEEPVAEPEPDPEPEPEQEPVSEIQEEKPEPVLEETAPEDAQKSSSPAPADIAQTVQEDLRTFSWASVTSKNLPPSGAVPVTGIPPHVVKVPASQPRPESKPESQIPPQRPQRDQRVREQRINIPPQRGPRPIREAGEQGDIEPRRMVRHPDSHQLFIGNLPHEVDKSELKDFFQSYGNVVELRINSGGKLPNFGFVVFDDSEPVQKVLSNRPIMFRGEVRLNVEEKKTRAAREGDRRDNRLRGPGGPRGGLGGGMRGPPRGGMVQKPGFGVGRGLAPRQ
Method: RNA Bind-n-Seq
Form: RNA
Sample: in vitro
Tested at: 1 µM
Notes: whole 134-nt RNA, ends assumed
Added: 150 mM KCl
Relative to: input library
Direction: higher = stronger binding
Quantity: log2 enrichment
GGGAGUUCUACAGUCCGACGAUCAAGUCCUGUGCUACACAUCGUAUGUACCGAAUCGGGUUUUGGUUUUGGGUUUUGGGAAAGUAUUAUGUUACGCCGUUCGGAUCUGCACUUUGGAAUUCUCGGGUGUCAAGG: -0.2
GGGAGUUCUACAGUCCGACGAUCUCCUGUGCUACACAUCGUAUGUACCGAAUCAAACCCCCCCAAACCCAAACCCCCCCAAAAAAGUAUUAUGUUACGCCGUUCGGAUCUGCAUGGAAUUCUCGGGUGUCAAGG: -0.252
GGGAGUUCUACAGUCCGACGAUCCACAGACAACACGCACCCACACAGACACAGAGGUAAGGGGUUGGGAUGGGGACAGGGUGCACAGCAGGGCGGGGUAGGACCCCAGCCCCUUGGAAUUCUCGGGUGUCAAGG: 0.0536
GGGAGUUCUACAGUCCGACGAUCUCCUGUGCUACACAUCGUAUGUACCGAAUCGGGGCCCCCGGGGCCCCCGGGGCCCCCGGAAAGUAUUAUGUUACGCCGUUCGGAUCUGCAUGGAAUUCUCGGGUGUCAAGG: -0.703
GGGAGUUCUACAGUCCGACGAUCCAAGUCCUGUGCUACACAUCGUAUGUACCGAAUCGGAAAGGGGAAAGGGGAAAGGGAAAGUAUUAUGUUACGCCGUUCGGAUCUGCACUUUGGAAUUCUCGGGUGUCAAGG: 0.131
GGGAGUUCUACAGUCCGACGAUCUUGACCUAGAGGAUGAGACCAUUGAUGCCGAGGUCAUGAACUCUCUAGCAGUUACUAUGGAUGACUUCCGGGUAAGGACCACACCCGUGCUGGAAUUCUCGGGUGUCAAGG: -0.138
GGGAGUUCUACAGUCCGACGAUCUCCACCCCUUCUUCCUCCCUUUAACUUAUCCAUUCACUUAAAACAUUACCUGGUCAUCUGGUAAGCCCGGGACAGUAAGCCGAGUGGCUGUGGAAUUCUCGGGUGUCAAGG: -0.172
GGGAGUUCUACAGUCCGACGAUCCACAGACAACACGCACCCACACAGACACAGAGGGAAGGGGUUGGGAUGGGGACAGGGUGCACAGCAGGGCGGGGUAGGACACCAGCCCCUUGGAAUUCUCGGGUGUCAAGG: -0.466
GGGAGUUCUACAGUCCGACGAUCCAAGUCCUGUGCUACACAUCGUAUGUACCGAAUCGGUUUGGGGUUUGGGUUUGGGGAAAGUAUUAUGUUACGCCGUUCGGAUCUGCACUUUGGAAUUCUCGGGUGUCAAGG: -0.404
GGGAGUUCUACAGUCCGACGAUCGUCCUGUGCUACACAUCGUAUGUACCGAAUCGGCCCCCCGGGCCCCCCGGGCCCCCCGGAAAGUAUUAUGUUACGCCGUUCGGAUCUGCAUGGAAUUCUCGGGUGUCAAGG: -0.457
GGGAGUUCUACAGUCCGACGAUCUCAAGUCCUGUGCUACACAUCGUAUGUACCGAAUCGGAAAGGAAAGGGGAAAGGAAAGUAUUAUGUUACGCCGUUCGGAUCUGCACUUCCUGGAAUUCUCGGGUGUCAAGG: -0.172
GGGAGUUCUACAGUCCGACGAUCCAAGUCCUGUGCUACACAUCGUAUGUACCGAAUCGGAAAAGGAAAAGGAAAAGGGGAAAGUAUUAUGUUACGCCGUUCGGAUCUGCACUUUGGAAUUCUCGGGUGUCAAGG: -0.167
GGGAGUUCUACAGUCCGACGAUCAGUCCUGUGCUACACAUCGUAUGUACCGAAUCGGCCCCGGGGCCCCGGGCCCCGGGGAAAGUAUUAUGUUACGCCGUUCGGAUCUGCACUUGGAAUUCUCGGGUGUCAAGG: -1.21
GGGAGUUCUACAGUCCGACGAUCUGGGAGGUGGAUUUUGUUUAUUUUUUUAGCUCAUUUCAAGGGGUGGGAAUUUUUUUUUAAUAUGUGUCAUGAAUAAAGUUGUUUUUGAAAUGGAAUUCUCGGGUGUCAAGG: 2.05

Block 3
Target: ABI1, truncated, D143A, DHFR fusion (Arabidopsis thaliana, UniProt P49597)
Method: DHFR PCA, dose-response
Sample: yeast
Notes: Hill fit, mean, not affinity
Added: (+)-ABA, dose series
Direction: lower = more sensitive
Quantity: ABA EC50
Parent: PYL1, truncated, DHFR fusion (Arabidopsis thaliana, UniProt Q8VZS8); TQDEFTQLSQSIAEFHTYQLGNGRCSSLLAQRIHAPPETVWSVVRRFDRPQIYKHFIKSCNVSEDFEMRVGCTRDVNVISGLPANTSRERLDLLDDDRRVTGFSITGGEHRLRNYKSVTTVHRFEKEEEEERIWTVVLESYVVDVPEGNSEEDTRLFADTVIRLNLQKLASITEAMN
D97G: 4.05 µM
S42N: 4.25 µM
Q10P: 3.57 µM
V161T: 304 µM
G21R: 2.44 µM
F66M: 4.69 µM
L8D: 131 µM
T86G: 3.6 µM
F157A: 583 µM
N22Y: 2.3 µM
D48Y: 275 µM
S104T: 2.46 µM
C25Y: 209 µM
A35M: 103 µM
R90L: 66.4 µM
R99Q: 4.83 µM
I52H: 6.44 µM
L20C: 1.7 µM

Block 4
Target: Histone acetyltransferase KAT6A, winged helix 1, GST fusion (KAT6A, Homo sapiens, UniProt Q92794, residues 1-85)
Method: protein binding microarray
Form: double-stranded DNA, one strand shown
Sample: in vitro
Tested at: not given
Notes: 8-mer, flanks averaged, mean of 2 arrays, mostly near background
Relative to: not given
Direction: higher = stronger binding
Quantity: E-score
Construct (chain): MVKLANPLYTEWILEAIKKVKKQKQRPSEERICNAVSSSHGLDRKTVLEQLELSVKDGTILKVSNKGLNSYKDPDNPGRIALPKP
ATATGCAG: -0.176
CCGCTACC: 0.302
AGACGCAT: 0.0348
GACATGGC: -0.0948
ACGCGCTA: 0.37
CCAAGGAA: -0.0555
CAATAAGA: -0.252
ATTCGGTA: 0.0268
ATTAACGC: 0.255
ACTGGACA: -0.181
GCTTATGA: -0.0689
ATCAATCG: -0.0644
AGCTCCAG: -0.197
GAGCGTGC: 0.102
AGCTTACT: -0.0923
CTGTCCTA: -0.345
ATAGGGAC: -0.0439
AGCCCGCC: 0.36
AGTCCGGG: 0.159
ACATGCGA: 0.0683
GAGTTTTA: -0.117
ATTTCGCG: 0.21
CGAGTGAG: -0.0108
ATACACGG: 0.152
ATGTGGGG: -0.259

Block 5
Target: Interferon regulatory factor 7, full length, phosphomimetic (IRF7, Homo sapiens, UniProt Q92985, residues 1-503, S101K/S471D/S472D/S475D/S476D/S477D/S483D/S484D/S487D)
UniProt Q92985, sequence (whole entry, unmodified, looked up): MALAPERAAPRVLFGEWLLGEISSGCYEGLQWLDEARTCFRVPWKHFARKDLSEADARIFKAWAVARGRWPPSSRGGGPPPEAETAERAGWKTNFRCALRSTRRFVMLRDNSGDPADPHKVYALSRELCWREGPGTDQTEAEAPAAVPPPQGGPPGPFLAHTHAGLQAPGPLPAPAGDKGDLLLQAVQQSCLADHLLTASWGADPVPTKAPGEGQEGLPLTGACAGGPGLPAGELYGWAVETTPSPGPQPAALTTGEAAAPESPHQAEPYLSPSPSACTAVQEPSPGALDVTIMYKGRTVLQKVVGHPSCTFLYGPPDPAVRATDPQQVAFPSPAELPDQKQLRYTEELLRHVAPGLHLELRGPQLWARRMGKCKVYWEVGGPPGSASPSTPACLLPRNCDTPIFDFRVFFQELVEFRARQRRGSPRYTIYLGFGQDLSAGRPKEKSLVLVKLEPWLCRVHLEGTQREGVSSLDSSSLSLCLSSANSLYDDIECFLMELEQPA
Method: protein-binding microarray
Form: double-stranded DNA, one strand shown
Sample: in vitro
Tested at: 250 nM
Notes: 60-bp whole probe
Added: salmon DNA 0.4 mg/ml
Relative to: random background probes
Direction: higher = stronger binding
Quantity: log fluorescence
All sequences stand within: GCCTAGCAC … GTCTTGATTCGCTTGACGCTGCTG
TCAGGCTTCTATGTAGTACTGTGCTAG: -0.586 z-score
TTACGTATCCTTTTCCTTTAGTGCTAG: 1.58 z-score
TTAGAACTGAGACTGGATTCGTGCTAG: 0.275 z-score
TCAAAATTGTCTCTGTCACTGTGCTAG: -0.0456 z-score
GACGAAGTGAGTATCGAGACGTGCTAG: -0.198 z-score
TTAGGACTCGACTTTCGGTTAGTGCTA: 3.57 z-score
TTAGGTTTCGGACTGGGTTAGTGCTAG: 3.96 z-score
TCCTAATTCTCTTTTCACTTGTGCTAG: 1.61 z-score
TTAGGTATCGATATCGGTTAGTGCTAG: 2.72 z-score
GACGGTTTCCTCCTCCTGACGTGCTAG: 1.19 z-score
GACGATTTCGGATATCGAGACGTGCTA: 1.03 z-score
TTAAGTATCCTACTGCTTTAGTGCTAG: 0.401 z-score
TTAGGTATCAGTCTCGGTTAGTGCTAG: 1.73 z-score
GCCGGTTTCGACTATCGGGACGTGCTA: 6.64 z-score
TTAGGTATCGGATTGGGTTAGTGCTAG: 2.15 z-score
CCCTTTTCATGCTCTTATATAGTGCTA: 1.46 z-score
GACGGTATCCTTTCCCTGACGTGCTAG: 0.554 z-score
TCAGAAATCTCTTTCCTACTGTGCTAG: 0.288 z-score
GACGGTCTCCTTATACTGACGTGCTAG: 0.105 z-score
TTAGATATCGCGTATCGATTAGTGCTA: 0.137 z-score
TTAGGTTTCCTTTTCCTTAAGTGCTAG: 7.64 z-score
GCACGGCTCGTTATCCTATAGTGCTAG: 0.496 z-score
GACGGGTTCCTTTTCCTGACGTGCTAG: 1.98 z-score
AACGAACTGAGTCTCGAGACGTGCTAG: 0.41 z-score

Repeated from above (block 4):
CTGTCCTA: -0.345
ATAGGGAC: -0.0439
AGCCCGCC: 0.36
AGTCCGGG: 0.159
ACATGCGA: 0.0683
GAGTTTTA: -0.117
ATTTCGCG: 0.21
